# Experimental data from different studies.
# Compare with care: the assays were run in different laboratories. ± marks the error that the study gave.
# rep main protease: Replicase polyprotein 1ab, main protease (rep, Severe acute respiratory syndrome coronavirus 2, UniProt P0DTD1)
# rep papain-like protease: Replicase polyprotein 1ab, papain-like protease (rep, Severe acute respiratory syndrome coronavirus 2, UniProt P0DTD1)
# Spike glycoprotein: Spike glycoprotein (Severe acute respiratory syndrome coronavirus 2, UniProt P0DTC2)
SMILES,tested on,assay,test system,conditions,endpoint,value
Nc1cccc(C(=O)NC[C@H](NC(=O)c2cnc3n[nH]nc3c2)c2ccc3ccccc3c2)c1,rep main protease,"enzyme activity, inhibitor",,"5 µM, run 1",inhibition,9.2%
CC(C)=CCc1cc(-c2oc3cc(O)cc(O)c3c(=O)c2O)cc(O)c1O,rep main protease,"enzyme activity, inhibitor",,concentration not given,inhibition,21.2%
O=C1CC(C(=O)N2CC3(CCC3)C[C@H]2CNC(=O)c2cncc3[nH]cnc23)CC(=O)N1,rep main protease,"enzyme activity, inhibitor",,"5 µM, mean of runs",inhibition,11.4%
COc1ccc(-c2oc3cc(OC)cc(O)c3c(=O)c2OC)cc1,rep main protease,"enzyme activity, inhibitor",,100 µM,inhibition,12.5%
Nc1nc2nc[nH]c2c(=S)[nH]1,rep papain-like protease,BRET in cells,,up to 100 µM,inhibition,inactive
Cc1ccc(OCCn2c(C)c(C=C3C(=O)NC(=S)NC3=O)c3ccccc32)c(C)c1,rep main protease,"viral replication, mKate2 reporter",SARS-CoV-2,20 µM,inhibition,-1.7%
O=C1NC(=O)C2(CC(C(=O)NC[C@@H]3CC4(CCC4)CN3C(=O)c3ccn4ccnc4c3)C2)N1 (stereo partly drawn),rep main protease,"enzyme activity, inhibitor",,"5 µM, mean of runs",inhibition,10%
CC(=O)O[C@@H]1[C@@H](O)[C@H](O[C@H]2CC[C@]34C[C@]35CC[C@]3(C)[C@@H]([C@@]6(C)CC[C@@H](C(C)(C)O)O6)[C@@H](O)C[C@@]3(C)[C@@H]5C[C@H](O[C@@H]3O[C@H](CO)[C@@H](O)[C@H](O)[C@H]3O)[C@H]4C2(C)C)OC[C@H]1O,Spike glycoprotein,biolayer interferometry,,,Kd,168 µM
Cc1nn(-c2ccc(Cl)cc2)c2c1C(c1ccc(Cl)cc1Cl)C(C#N)=C(N)O2 (stereo not drawn),rep main protease,3CL protease activity,,"0.0001 µg/mL, 120 min, enzyme 0.1 ng/mL",inhibition,1.87%
COc1c2c(cc3oc(=O)c(-c4ccc(O)cc4O)cc13)OC(C)(C)CC2,rep main protease,"enzyme activity, inhibitor",,concentration not given,inhibition,16.2%
COc1cc(O)c2c(=O)cc(-c3ccccc3)oc2c1,rep main protease,"enzyme activity, inhibitor",,100 µM,inhibition,10.9%
CC(C)(C)c1ccc(Oc2ccc(N)cn2)cc1,rep main protease,"reporter gene (mKate2), inhibitor",,20 µM,inhibition,0.303%
O=C(NC[C@H]1CN(C(=O)c2cc(O)ccc2F)CC[C@@]12CCOC2)c1ccc2n[nH]nc2c1,rep main protease,"enzyme activity, inhibitor",,"5 µM, run 1",inhibition,15.6%
Cn1cnc(Cn2c(=O)[nH]/c(=N\c3cc4cn(C)nc4cc3Cl)n(Cc3cc(F)c(F)cc3F)c2=O)n1,,,"human, severe renal impairment, plasma","oral, 375 mg single dose",Vz/F,24 L
Cc1ccc2[nH]ncc2c1C(=O)NC[C@H]1Cc2ccccc2CN1C(=O)C[C@H](C)c1ccco1,rep main protease,"enzyme activity, inhibitor",,"5 µM, run 1",inhibition,11.1%
O=c1cc(-c2ccc(O)cc2)oc2c([C@@H]3O[C@H](CO)[C@@H](O)[C@H](O)[C@H]3O)c(O)c([C@@H]3OC[C@H](O)[C@H](O)[C@H]3O)c(O)c12,rep main protease,"enzyme activity, inhibitor",,concentration not given,inhibition,63%
CC[C@H](C)[C@H](NC(=O)[C@H](CC(C)C)NC(=O)[C@H](Cc1c[nH]c2ccccc12)NC(=O)[C@H](CCC(N)=O)NC(=O)[C@@H](NC(=O)[C@H](Cc1ccccc1)NC(=O)[C@H](C)NC(=O)[C@H](CCCCNC(=O)COCCOCCNC(=O)COCCOCCNC(=O)CC[C@H](NC(=O)CCCCCCCCCCCCCCCCCCC(=O)O)C(=O)O)NC(=O)[C@H](CCC(N)=O)NC(=O)[C@H](C)NC(=O)[C@@H](NC(=O)[C@H](CCCCN)NC(=O)[C@H](CC(=O)O)NC(=O)[C@H](CC(C)C)NC(=O)C(C)(C)NC(=O)[C@@H](NC(=O)[C@H](CO)NC(=O)[C@H](Cc1ccc(O)cc1)NC(=O)[C@H](CC(=O)O)NC(=O)[C@H](CO)NC(=O)[C@@H](NC(=O)[C@H](Cc1ccccc1)NC(=O)[C@@H](NC(=O)CNC(=O)[C@H](CCC(=O)O)NC(=O)C(C)(C)NC(=O)[C@@H](N)Cc1ccc(O)cc1)[C@@H](C)O)[C@@H](C)O)[C@@H](C)CC)[C@@H](C)CC)C(C)C)C(=O)N[C@@H](C)C(=O)NCC(=O)NCC(=O)N1CCC[C@H]1C(=O)N[C@@H](CO)C(=O)N[C@@H](CO)C(=O)NCC(=O)N[C@@H](C)C(=O)N1CCC[C@H]1C(=O)N1CCC[C@H]1C(=O)N1CCC[C@H]1C(=O)N[C@@H](CO)C(N)=O,,,"healthy subjects, single ascending dose","5.0 mg, baseline",serum AST,24.2 ± 7.9 U/L
COc1ccc(-c2oc3cc(OC)cc(OC)c3c(=O)c2OC)cc1,rep main protease,"enzyme activity, inhibitor",,100 µM,inhibition,-6.57%
CC[C@H](CC[C@@H](C)[C@H]1CC[C@H]2[C@@H]3CC=C4C[C@@H](O[C@@H]5O[C@H](CO)[C@@H](O)[C@H](O)[C@H]5O)CC[C@]4(C)[C@H]3CC[C@]12C)C(C)C,Spike glycoprotein,"binding, BLI",,,Kd,130 µM
O=c1oc(-c2ccccc2Br)nc2cccc(Cl)c12,rep main protease,"viral replication, mKate2 reporter",SARS-CoV-2,20 µM,inhibition,-0.78%
O=C(N1CCC2(CC1)C[C@H](CN1CCCCS1(=O)=O)CCO2)C1(c2ccccc2)CCCC1,"Replicase polyprotein 1ab, nsp13 helicase (rep, Severe acute respiratory syndrome coronavirus 2, UniProt P0DTD1)","ATPase activity, inhibitor",,100 µM,inhibition,20%
O=C(O)c1cc(Oc2ccc([N+](=O)[O-])cc2)cc(Oc2ccc([N+](=O)[O-])cc2)c1,rep main protease,"reporter gene (mKate2), inhibitor",,20 µM,inhibition,-0.115%
O=c1c(O)c(-c2cc(O)c(O)c(O)c2)oc2cc(O)cc(O)c12,rep main protease,"enzyme activity, inhibitor",,10 µM,inhibition,99.7%
Nc1ncnc2c([C@@H]3N[C@H](CO)[C@@H](O)[C@H]3O)c[nH]c12,Chikungunya virus,viral replication,"HeLa, AF 15561",3.1 µM,inhibition,11.1%
O=C(N[C@@H](CNC(=O)[C@H]1CC12CC2)c1ccc2ccccc2c1)c1cncc2ccccc12,rep main protease,"enzyme activity, inhibitor",,"5 µM, run 1",inhibition,8.6%
O=c1cc(-c2ccc(O)cc2)oc2cc(O[C@@H]3O[C@H](CO)[C@@H](O)[C@H](O)[C@H]3O)ccc12,rep main protease,"enzyme activity, inhibitor",,concentration not given,inhibition,12.5%
CC(=O)OCCN1C(=O)c2c(C)nc3ccc(S(=O)(=O)N4CCOCC4)cc3c2C1=O,rep main protease,"reporter gene (mKate2), inhibitor",,20 µM,inhibition,-0.553%
CC(C)=CCc1c(O)ccc(-c2coc3cc(O)cc(O)c3c2=O)c1O,rep papain-like protease,"enzyme activity, inhibitor",,concentration not given,inhibition,45.5%
COc1cc(OC)c2c(=O)c(OC)c(-c3ccccc3)oc2c1,rep main protease,"enzyme activity, inhibitor",,100 µM,inhibition,-13.7%
Cc1nn(C)c2ncc(C(=O)N3CC4(CCOCC4)C[C@H]3CNC(=O)c3cccnc3)cc12,rep main protease,"enzyme activity, inhibitor",,"5 µM, mean of runs",inhibition,11.1%
COc1ccc(S(=O)(=O)N(Cc2cccnc2)[C@@H](C(=O)NO)C(C)C)cc1,rep main protease,"reporter gene (mKate2), inhibitor",,20 µM,inhibition,-0.213%
COc1cc(O)c2c(=O)c(OC)c(-c3ccccc3)oc2c1,rep main protease,"enzyme activity, inhibitor",,100 µM,inhibition,7.44%
CCC[C@H](NC(=O)[C@@H]1[C@H]2CCC[C@H]2CN1C(=O)[C@@H](NC(=O)[C@@H](NC(=O)c1cnccn1)C1CCCCC1)C(C)(C)C)C(=O)C(=O)NC1CC1,rep main protease,"reporter gene (Gaussia luciferase), inhibitor",,20 µM,inhibition,2.56%
O=C(Cc1cccnc1)N1CCC[C@H]([C@H]2CCN(C(=O)C3=CO[C@H]4C=CC(F)=CC4=C3)C2)C1,rep main protease,"enzyme activity, inhibitor",,"5 µM, run 1",inhibition,16.4%
CCOC(=O)c1cc2cc(-c3cc(C(=O)NCc4ccc(C(=O)O)cc4)nn3C)ccc2[nH]1,rep main protease,"reporter gene (mKate2), inhibitor",HEK293T,20 µM,inhibition,0.386%
CC(=O)OC[C@H]1O[C@@H]([S-])[C@H](OC(C)=O)[C@@H](OC(C)=O)[C@@H]1OC(C)=O.CCP(CC)CC.[Au+],rep main protease,"protease activity, inhibitor",,"50 µM, 10 min, pH 7.2, 37 °C, 4% DMSO, together with: Boc-Abu-Tle-Leu-Gln-AMC substrate",inhibition,52%

# For quick reference, copied from above:
SMILES,tested on,assay,test system,conditions,endpoint,value
COc1cc(OC)c2c(=O)c(OC)c(-c3ccccc3)oc2c1,rep main protease,"enzyme activity, inhibitor",,100 µM,inhibition,-13.7%
Cc1nn(C)c2ncc(C(=O)N3CC4(CCOCC4)C[C@H]3CNC(=O)c3cccnc3)cc12,rep main protease,"enzyme activity, inhibitor",,"5 µM, mean of runs",inhibition,11.1%
COc1ccc(S(=O)(=O)N(Cc2cccnc2)[C@@H](C(=O)NO)C(C)C)cc1,rep main protease,"reporter gene (mKate2), inhibitor",,20 µM,inhibition,-0.213%
COc1cc(O)c2c(=O)c(OC)c(-c3ccccc3)oc2c1,rep main protease,"enzyme activity, inhibitor",,100 µM,inhibition,7.44%
CCC[C@H](NC(=O)[C@@H]1[C@H]2CCC[C@H]2CN1C(=O)[C@@H](NC(=O)[C@@H](NC(=O)c1cnccn1)C1CCCCC1)C(C)(C)C)C(=O)C(=O)NC1CC1,rep main protease,"reporter gene (Gaussia luciferase), inhibitor",,20 µM,inhibition,2.56%
O=C(Cc1cccnc1)N1CCC[C@H]([C@H]2CCN(C(=O)C3=CO[C@H]4C=CC(F)=CC4=C3)C2)C1,rep main protease,"enzyme activity, inhibitor",,"5 µM, run 1",inhibition,16.4%
